Experimental data of several laboratories.
Each line is one published result; not all experiments were run side by side. ± gives the spread as reported.

Compound | cell line | assay | conditions | scale | quantity | value
C=CC(=O)Nc1cc(Nc2nccc(-c3c(-c4ccc(OCC)cc4)n(C)c4ccccc34)n2)c(OC)cc1N(C)CCN(C)C | NCI-H1975 | cell growth or viability, MTT | 0.5 µM, 72 h | – | inhibition | 62.3%
Cn1ncc2cc(-c3cncc(Cl)c3N3CCC4(CCNC4=O)CC3)ccc21 | LS174T | gene expression, microarray, item: EMP1 mRNA | concentration not given, 24 h | relative to: untreated cells | log2 fold change | 1.34
CCCCCCCCCCCCCCCCCCOc1ccccc1CCOP(=O)([O-])OCC[N+](C)(C)C | HOP-62 | cell growth or viability, SRB | 10 µM | – | inhibition | 44.7%
COc1ccc2c(c1)c(CC(=O)[Se]CC(=O)Nc1cccc(C(F)(F)F)c1)c(C)n2C(=O)c1ccc(Cl)cc1 | NCI60 CNS subpanel | NCI60 five-dose screen | – | – | mean TGI | 3.45 µM
CCC(=CCc1c(O)cc2c(c1O)C(=O)CC(c1ccc(O)cc1)O2)CC (stereo not shown) | HeLa | flow cytometry | 12 µM, 48 h | – | sub-G1 cells | 7.42 ± 0.46%
CCOC(=O)c1ccc(NC(=O)C(C#N)=C2C(=O)c3ccccc3C2=O)cc1 | HepG2 | cell growth or viability, MTT | 1.56 µM, 24 h | – | viability | 100%
O=C(NC1CCCCC1)c1cccc(N2Cc3cnn(Cc4ccc(F)cc4)c3C2)c1 | HEK293 expressing GluA1 and GluA2 | glutamate excitotoxic cell death, CellTox Green | with: glutamate | – | IC50 | 0.009 µM
O=C(C[Se]C(=O)c1cccnc1Nc1cccc(C(F)(F)F)c1)Nc1cccc(C(F)(F)F)c1 | NCI60 melanoma subpanel | total growth inhibition, inhibitor | five-dose | – | mean TGI | 3.37 µM
CCN(CC)CC(=O)Nc1cccc(-n2cc(-c3ccc4ccc(-c5cn(-c6cccc(NC(=O)CN(CC)CC)c6)nn5)cc4c3)nn2)c1 | RCC4 | PCR angiogenesis array, item: TIMP2 | 5 x IC50, 2 h, normoxia | relative to: untreated | fold regulation | -1.05 fold
COc1cc(N(C)CCN(C)C)c(NC(=O)/C=C/c2cc(F)cc(Cl)c2)cc1Nc1nccc(-c2cn(C)c3ccccc23)n1 | NCI-H1975 | cell growth or viability, MTT | 0.5 µM, 72 h | – | inhibition | 71.5%
Cc1ncsc1-c1ccc(C(C)NC(=O)C2CC(O)CN2C(=O)C(NC(=O)CCCCCCCCCCN2CCCC(Nc3ncc(Cl)c(Nc4ccccc4S(=O)(=O)C(C)C)n3)C2)C(C)(C)C)cc1 (stereo not shown) | 22Rv1 | RNA-seq, item: SPRED3 mRNA | concentration not given | relative to: DMSO | log2 fold change | -2.49
CCCC(CCC)C(=O)OCc1cn(-c2cc3ccccc3oc2=O)nn1 | HOP-92 | NCI60 single-dose screen | 10 µM | – | growth percentage | 90.2%
COc1cc(N(C)CCN(C)C)c(NC(=O)/C=C/C2=Cc3ccccc3C2)cc1Nc1nccc(-c2cn(C)c3ccccc23)n1 | NCI-H1975 | cell growth or viability, MTT | 0.5 µM, 72 h | – | inhibition | 68.1%
Cc1cc(Cl)cc(-c2ccnc3cc(CN4C(=O)C5C(C4=O)C5(C)C)sc23)c1C[C@@H]1CNCCO1 (stereo partly shown) | CHP-212 parental | PI flow cytometry | 0.3 µM, 24 h | – | G1 phase cells | 67.7%
Cc1ccc(-n2cc(CSc3nc4ccccc4n3Cc3cn(-c4ccc(C)cc4)nn3)nn2)cc1 | MDA-MB-231 | MTT | 15.6 ppm | – | cytotoxicity | 75.7%
CCN(C(=O)c1cc(F)ccc1Oc1nncnc1N1CCC2(C1)CN([C@H](CCCN(C)CCOC)C(C)C)C2)C(C)C | SK-BR-3 | cell growth or viability | 72 h | – | GI50 | > 10 µM
C=C(NC(=O)c1csc(-c2cccnc2)n1)C(=O)NC(=C)C(=O)OC | H-MESO-1 | cell viability, crystal violet | 3 h exposure, 48 h total | – | EC50 | 34 µM
O=C(O)c1cccc(N2Cc3cnn(Cc4ccc(F)cc4)c3C2)c1 | HEK293 expressing GluA1 and GluA2 | glutamate excitotoxic cell death, CellTox Green | with: glutamate | – | IC50 | 1.05 µM
COc1cc(/C=C/C(=O)/C=C(O)/C=C/c2ccc(OCC(=O)N3CCOCCOCCOCCOCCOCC3)c(OC)c2)ccc1OCC(=O)N1CCOCCOCCOCCOCCOCC1 | HCT-15 | cell growth or viability, SRB | 25 µM | – | inhibition | 99.4%
NC(=O)c1cncc(N2Cc3cnn(Cc4ccc(F)cc4)c3C2)n1 | HEK293 expressing GluA1 and GluA2 | glutamate excitotoxic cell death, CellTox Green | with: glutamate | – | IC50 | > 5 µM

Compound | cell line | assay | conditions | scale | quantity | value
C=CC(=O)N1[C@@H](c2ccc3c(c2)OCO3)c2[nH]c3ccccc3c2C[C@H]1C(=O)N1CCN(C)CC1 | HEK293T expressing CCNE1-3xFLAG | CCNE1 immunoprecipitation level, TMT IP-MS, item: CCNE1 | 20 µM, 6 h | relative to: DMSO | log2 fold change | 0
O=C(C[Se]C(=O)c1ccccc1Nc1cccc(C(F)(F)F)c1)Nc1cccc(C(F)(F)F)c1 | NCI60 melanoma subpanel | cell growth | 10 µM, 48 h, one-dose | – | mean growth percent | -88.9%
CCn1nc(Cl)c2c1-c1cnc(N)c(c1)O[C@H](C)c1cc(F)ccc1-c1nn(C)cc1C2 | Ba/F3 EML4-ALK variant 1 E1210K | cell viability | – | – | Emax | 99.5%
O=C(C[Se]C(=O)c1ccc2ccccc2c1)Nc1cccc(C(F)(F)F)c1 | NCI60 melanoma subpanel | cell growth | 10 µM, 48 h, one-dose | – | mean growth percent | -79.4%
C=CC(=O)Nc1cc(Nc2nccc(-c3c(-c4ccc(Cl)cc4)n(C)c4ccccc34)n2)c(OC)cc1N(C)CCN(C)C | NCI-H1975 | cell growth or viability, MTT | 0.5 µM, 72 h | – | inhibition | 76%
Cc1c(Cl)cccc1Nc1ccccc1C(=O)[Se]CC(=O)Nc1cccc(C(F)(F)F)c1 | NCI60 CNS subpanel | NCI60 five-dose screen | – | – | mean TGI | 3.47 µM
O=C1CCCC2=C1C(c1c[nH]c3ccccc13)c1cc(Br)ccc1O2 (stereo not shown) | 3T3-L1 preadipocytes | adipogenesis, Oil Red O staining | IC20, 14 days, single replicate | – | lipid content | 0.591 OD492
O=C(C[Se]C(=O)c1cc2ccccc2o1)Nc1cccc(C(F)(F)F)c1 | NCI60 leukaemia subpanel | NCI60 five-dose screen | – | – | GI50 | 1.87 µM
COc1ccc(Br)c2c1OC1=C(C(=O)CCC1)C2c1c[nH]c2ccccc12 (stereo not shown) | 3T3-L1 preadipocytes | adipogenesis, Oil Red O staining | IC20, 14 days | – | mean lipid content | 0.788 OD492
N#Cc1cccc(/C=C/C(=O)c2ccc(O)cc2)c1 | U-87 MG | item: RUNDC3B | concentration not given | relative to: untreated | fold change | 36.3
O=C(C[Se]C(=O)c1ccccc1Nc1ccccc1)Nc1cccc(C(F)(F)F)c1 | NCI60 melanoma subpanel | cell growth | 10 µM, 48 h, one-dose | – | mean growth percent | -77.2%
CN1CCCNC(=O)c2cccc(c2)C(=O)NCCCN(C)CCCNc2cccc3c2C(=O)c2cccc(c2C3=O)NCCC1 | SAS | RNA-Seq, item: METAP1 mRNA | 1 µM, 6 h | relative to: untreated cells | log2 fold change | -1.09
CC(C)c1ccc(N(C)c2ccc3c(c2)OCC[C@H]3CNc2cnccc2C(=O)O)cc1 | TE-1 | cell growth or viability, ATP luminescence | 7 days | – | IC50 | ≥ 10 µM
O=[C]=[Mn-2]12(=[C]=O)(=[C]=O)[O]c3cc4c(cc3=[N+]1CCc1ccccc1)[O][Mn-2](=[C]=O)(=[C]=O)(=[C]=O)([N+]=4CCc1ccccc1)[n+]1ccc(cc1)C(=O)Oc1ccccc1OC(=O)c1cc[n+]2cc1 | HCT-15 | MTT | 50 µM, 48 h, photolysed compound | – | viability reduction | 88%
CCc1n(CC(=O)O[C@@H]2C[C@H](C)CC[C@H]2C(C)C)c2ccccc2[n+]1C | HTS cells (mouse) | gene microarray, item: COX6A2 | 1 µM, 24 h, unit not given | relative to: untreated | mRNA level | 7.43
Nc1c(S(=O)(=O)O)cc(Nc2cccc(S(N)(=O)=O)c2)c2c1C(=O)c1ccccc1C2=O | primary mouse articular chondrocytes | Western blot, item: Phlpp1 | 25 µM, days 0-6 and 0-9 | relative to: vehicle | protein level | 50 to 70%
COC(=O)c1cc(NC2=NC(=O)C(=Cc3ccc(N(C)C)cc3)S2)ccc1OC(C)=O | MCF7 | GC-MS, item: Dl-Ornithine | 1 µM | relative to: DMSO | metabolite level | 0.04 fold change
CC(C)Cc1ccc(C(C)C(=O)[Se]CC(=O)Nc2cccc(C(F)(F)F)c2)cc1 (stereo not shown) | NCI60 melanoma subpanel | cell growth | 10 µM, 48 h, one-dose | – | mean growth percent | -82.5%
COC(=O)c1ccc(/C=C/C(=O)Nc2cc(Nc3nccc(-c4cn(C)c5ccccc45)n3)c(OC)cc2N(C)CCN(C)C)cc1 | NCI-H1975 | cell growth or viability, MTT | 0.5 µM, 72 h | – | inhibition | 58%
CNS(=O)(=O)Nc1nccc(Cc2c(C)c3ccc(Oc4ncccc4F)cc3oc2=O)c1F | HEC-1-A | cell viability | 7 days | – | IC50 | > 1 µM
